Published values collected from several papers.
Lines come from different studies, so protocols differ. ± gives the spread as reported.

NC(=O)c1ccc(C(=O)NOCc2ccc(Sc3cccc(Cl)c3)c(C(F)(F)F)c2)cc1 gave a Tmax of 0.25 h (male ICR mouse, plasma; oral, 60 mg/kg).
The Tmax of N#CC1(c2ccc3c(N)ncnn23)OC(COP(=O)(O)O)C(O)C1O (centres unmarked) is reported as 1 h (LC-MS/MS; CD-1 mouse male, lung; oral, 100 mg/kg of remdesivir).
O=C1OC2(c3ccccc31)c1cc(I)c(O)c(I)c1Oc1c2cc(I)c(O)c1I has a Tmax of 0.25 h (C57BL/6 mouse, female, plasma; intraperitoneal, 50 mg/kg).
For CCCCCCc1ccc(Oc2ccccc2C#N)c(O)c1, the Tmax was 1 h (CD-1 mouse, plasma; subcutaneous, 100 mg/kg).
Cc1ccc(NC(=O)N2CCCN3CCC(c4ccc(C#CC5(O)CCCCC5)cc4)C3C2)cc1 (centres unmarked) has a Tmax of 1 h (CD-1 mouse, plasma; oral, 10 mg/kg, single dose).
For CC(C)[C@H](CO)Nc1nc(Nc2ccc(C(=O)NCCNS(=O)(=O)c3cccc4c(N(C)C)cccc34)c(Cl)c2)c2ncn(C(C)C)c2n1, the Tmax was 4 h (mouse, pancreas and spleen; oral, 20 mg/kg).
For O=C(OC(C(F)(F)F)C(F)(F)F)N1CCC(CNS(=O)(=O)c2ccc(Cl)cc2)CC1, the Tmax was 4 h (CB17 SCID mouse, male, plasma and brain; oral, 30 mg/kg).
For COc1ccc(-c2ccn(CC[C@](C)(C(=O)NO)S(C)(=O)=O)c(=O)c2)c(F)c1, the Tmax was 0.33 ± 0.13 h (CF-1 mouse, female; subcutaneous, 300 mg/kg).
N=C(N)NCCC[C@@H]1NC(=O)[C@H](Cc2c[nH]c3ccccc23)NC(=O)[C@@H](CC2CCCCC2)NC(=O)[C@@H]2CCCN2C(=O)[C@@H](NC(=O)CCc2ccccc2)CCCNC1=O gave a Tmax of 0.238 h (C57BL/6J mouse, plasma; intraperitoneal, 1 mg/kg, single dose).
For Cc1[nH]nc2c1N=C(c1ccccc1Cl)c1cnc(N3CCOCC3)cc1N2, the Tmax was 7 h (nude mouse, HCC1806 xenograft, tumour; oral, 15 mg/kg once daily).
C[C@@H]1Cc2c([nH]c3ccccc23)[C@@H](c2c(F)cc(/C=C/C(=O)O)cc2F)N1C12CC(C1)C2 has a Tmax of 2 h (Balb/c nude mouse, MCF7 xenograft, tumour; oral, 5 mg/kg).
[11CH3]N1CCN(CCCOc2ccc(=O)n(-c3ccc(Cl)c(Cl)c3)n2)CC1 gave a Tmax of 0.25 h (radiotracer; mouse BALB/c male, spleen; intravenous).
CCNC(=O)c1noc(-c2cc(C(C)C)c(O)cc2O)c1NC(=O)CCN1CCOCC1 gave a Tmax of 1 h (CD1 nude mouse, A-431 xenograft, plasma; intraperitoneal, 80 mg/kg single).
With CCCCCCCCCCCCCCCC(=O)NCCOCCOCCOCCOCCOCCOCCOCCOCCC(=O)NCCCC[C@H](NC(=O)CNC(=O)[C@@H]1CSSC[C@H](N)C(=O)N[C@@H](Cc2ccc(O)cc2)C(=O)N[C@@H]([C@@H](C)CC)C(=O)N[C@@H](CCC(N)=O)C(=O)N[C@@H](CC(N)=O)C(=O)N1)C(=O)NCC(N)=O the Tmax was 2 h (mouse, plasma; subcutaneous, 1 mg/kg).
With CC=C1C(OC2OC(CO)C(O)C(O)C2O)OC=C(C(=O)OC)C1CC(=O)OCC1OC(OCCc2ccc(O)cc2)C(O)C(O)C1O (centres unmarked) the Tmax was 0.167 h (PGF tumour-bearing BALB/c mouse, plasma; oral, 109.2 mg/kg).
CCS(=O)(=O)c1ccccc1C(=O)N1CCN(c2nc3ccc(F)cc3s2)C[C@@H]1C gave a Tmax of 0.0833 h (mouse; intravenous, 3 mg/kg).
COc1ccc(NC(=O)N2CCCCN3[C@H](CN(C)C)[C@H](c4ccc(C#Cc5ccccc5)cc4)[C@@H]3C2)cc1 gave a Tmax of 8 h (CD-1 mouse, brain; oral, 10 mg/kg, single dose).

For quick reference, copied from above:
For COc1ccc(-c2ccn(CC[C@](C)(C(=O)NO)S(C)(=O)=O)c(=O)c2)c(F)c1, the Tmax was 0.33 ± 0.13 h (CF-1 mouse, female; subcutaneous, 300 mg/kg).
N=C(N)NCCC[C@@H]1NC(=O)[C@H](Cc2c[nH]c3ccccc23)NC(=O)[C@@H](CC2CCCCC2)NC(=O)[C@@H]2CCCN2C(=O)[C@@H](NC(=O)CCc2ccccc2)CCCNC1=O gave a Tmax of 0.238 h (C57BL/6J mouse, plasma; intraperitoneal, 1 mg/kg, single dose).
